Measured values collected from several papers.
Changes are numbered by the printed parent chain.
WRKY6 full length assumed: WRKY6 full length assumed (Arabidopsis thaliana, UniProt Q9C519)
Sequence of UniProt Q9C519 (whole entry, looked up): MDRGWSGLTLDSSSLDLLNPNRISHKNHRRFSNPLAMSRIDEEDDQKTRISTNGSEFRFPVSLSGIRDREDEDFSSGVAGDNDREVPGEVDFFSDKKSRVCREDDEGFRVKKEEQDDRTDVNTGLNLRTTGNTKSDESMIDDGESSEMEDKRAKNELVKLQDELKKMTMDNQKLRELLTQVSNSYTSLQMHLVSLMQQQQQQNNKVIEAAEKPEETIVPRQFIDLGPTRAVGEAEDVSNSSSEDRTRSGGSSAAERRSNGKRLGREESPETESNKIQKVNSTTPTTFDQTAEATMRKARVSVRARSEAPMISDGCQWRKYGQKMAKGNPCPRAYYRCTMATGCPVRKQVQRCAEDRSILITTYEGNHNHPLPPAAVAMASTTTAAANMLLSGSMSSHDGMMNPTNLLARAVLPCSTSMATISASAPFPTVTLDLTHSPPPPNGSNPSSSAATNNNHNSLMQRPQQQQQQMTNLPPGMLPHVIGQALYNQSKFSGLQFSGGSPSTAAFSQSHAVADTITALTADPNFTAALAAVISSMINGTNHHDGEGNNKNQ
clp full length assumed: clp full length assumed (Lysobacter enzymogenes, UniProt Q7WZ07)
pum: pum 1093-1426 (Drosophila melanogaster, UniProt P25822)
Sequence of UniProt P25822 (whole entry, looked up): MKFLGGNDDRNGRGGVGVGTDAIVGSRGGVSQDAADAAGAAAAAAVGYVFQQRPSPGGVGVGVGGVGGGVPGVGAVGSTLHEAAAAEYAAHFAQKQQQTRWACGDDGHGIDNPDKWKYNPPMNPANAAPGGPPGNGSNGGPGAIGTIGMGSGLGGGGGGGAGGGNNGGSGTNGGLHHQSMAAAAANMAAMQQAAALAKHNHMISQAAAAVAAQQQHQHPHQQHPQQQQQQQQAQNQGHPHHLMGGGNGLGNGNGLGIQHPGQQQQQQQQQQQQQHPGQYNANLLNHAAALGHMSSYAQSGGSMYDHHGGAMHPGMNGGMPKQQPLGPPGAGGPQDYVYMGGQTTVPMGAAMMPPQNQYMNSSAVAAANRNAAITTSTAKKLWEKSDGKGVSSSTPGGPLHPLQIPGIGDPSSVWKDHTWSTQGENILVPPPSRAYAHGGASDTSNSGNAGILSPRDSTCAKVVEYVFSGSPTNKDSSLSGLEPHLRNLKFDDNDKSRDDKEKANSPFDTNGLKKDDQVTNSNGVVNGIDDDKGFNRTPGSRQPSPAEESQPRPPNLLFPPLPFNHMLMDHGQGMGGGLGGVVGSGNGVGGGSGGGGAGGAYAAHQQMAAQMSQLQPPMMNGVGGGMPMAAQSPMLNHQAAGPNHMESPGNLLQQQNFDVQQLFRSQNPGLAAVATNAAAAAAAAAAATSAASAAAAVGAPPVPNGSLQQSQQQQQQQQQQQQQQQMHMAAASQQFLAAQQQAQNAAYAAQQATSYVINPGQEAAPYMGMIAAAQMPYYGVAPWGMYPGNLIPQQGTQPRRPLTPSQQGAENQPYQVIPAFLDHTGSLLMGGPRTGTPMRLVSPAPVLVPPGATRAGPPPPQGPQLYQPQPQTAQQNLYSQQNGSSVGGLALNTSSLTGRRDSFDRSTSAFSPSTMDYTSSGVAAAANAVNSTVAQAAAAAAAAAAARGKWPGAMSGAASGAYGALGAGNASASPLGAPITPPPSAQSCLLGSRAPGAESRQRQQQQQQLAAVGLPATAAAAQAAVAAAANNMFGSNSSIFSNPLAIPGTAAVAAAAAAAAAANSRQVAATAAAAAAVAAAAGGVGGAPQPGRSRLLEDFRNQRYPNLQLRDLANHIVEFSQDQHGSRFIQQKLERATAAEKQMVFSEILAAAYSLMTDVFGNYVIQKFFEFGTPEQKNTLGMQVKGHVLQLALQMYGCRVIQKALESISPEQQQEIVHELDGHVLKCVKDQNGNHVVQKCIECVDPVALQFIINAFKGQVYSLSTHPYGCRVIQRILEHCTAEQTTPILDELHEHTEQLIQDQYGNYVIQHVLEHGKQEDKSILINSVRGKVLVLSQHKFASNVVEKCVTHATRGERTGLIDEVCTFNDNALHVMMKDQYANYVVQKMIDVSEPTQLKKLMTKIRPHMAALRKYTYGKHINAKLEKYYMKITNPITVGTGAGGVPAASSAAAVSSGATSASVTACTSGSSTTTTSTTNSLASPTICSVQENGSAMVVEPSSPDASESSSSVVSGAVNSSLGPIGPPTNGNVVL
ELAVL1 full length assumed: ELAVL1 full length assumed (Homo sapiens, UniProt Q15717)
Sequence of UniProt Q15717 (whole entry, looked up): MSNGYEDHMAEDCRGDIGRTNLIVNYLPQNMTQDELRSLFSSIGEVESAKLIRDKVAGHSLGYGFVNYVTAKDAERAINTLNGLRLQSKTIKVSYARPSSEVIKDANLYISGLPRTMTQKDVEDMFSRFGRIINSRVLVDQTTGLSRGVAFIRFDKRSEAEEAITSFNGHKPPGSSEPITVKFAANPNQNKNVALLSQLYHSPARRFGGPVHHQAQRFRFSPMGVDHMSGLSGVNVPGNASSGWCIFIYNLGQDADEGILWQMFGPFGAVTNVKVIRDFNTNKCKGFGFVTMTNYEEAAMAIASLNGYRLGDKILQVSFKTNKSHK
T1: NFATC1 408-716; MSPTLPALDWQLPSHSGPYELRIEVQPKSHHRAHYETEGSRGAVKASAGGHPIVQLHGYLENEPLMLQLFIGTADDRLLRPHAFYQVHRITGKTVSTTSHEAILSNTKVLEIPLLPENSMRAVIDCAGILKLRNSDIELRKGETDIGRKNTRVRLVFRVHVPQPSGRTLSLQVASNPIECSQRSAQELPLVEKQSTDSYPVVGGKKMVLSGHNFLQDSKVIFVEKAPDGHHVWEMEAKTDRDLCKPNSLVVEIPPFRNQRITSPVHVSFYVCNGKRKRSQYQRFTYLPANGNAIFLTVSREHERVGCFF
T2: SREBF1 residues 1-403 (Rattus norvegicus); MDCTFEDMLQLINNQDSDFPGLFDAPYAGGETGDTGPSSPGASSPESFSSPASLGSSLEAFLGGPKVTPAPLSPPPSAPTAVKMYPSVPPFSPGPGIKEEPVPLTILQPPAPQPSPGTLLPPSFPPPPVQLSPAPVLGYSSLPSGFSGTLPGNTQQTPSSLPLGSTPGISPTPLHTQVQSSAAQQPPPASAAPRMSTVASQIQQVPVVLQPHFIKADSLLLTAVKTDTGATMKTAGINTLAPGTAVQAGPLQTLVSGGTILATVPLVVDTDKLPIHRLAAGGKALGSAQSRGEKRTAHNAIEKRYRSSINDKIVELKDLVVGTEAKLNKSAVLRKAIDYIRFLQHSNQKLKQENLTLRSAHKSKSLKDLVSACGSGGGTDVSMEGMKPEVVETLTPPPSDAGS
P1: NCAM1 residues 745-753 (Mus musculus); IAVNLCGKA; partner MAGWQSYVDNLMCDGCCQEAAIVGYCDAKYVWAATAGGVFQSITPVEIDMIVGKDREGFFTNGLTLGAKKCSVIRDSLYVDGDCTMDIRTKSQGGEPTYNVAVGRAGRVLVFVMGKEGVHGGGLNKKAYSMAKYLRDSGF
Sequence of UniProt O15527 (whole entry, looked up): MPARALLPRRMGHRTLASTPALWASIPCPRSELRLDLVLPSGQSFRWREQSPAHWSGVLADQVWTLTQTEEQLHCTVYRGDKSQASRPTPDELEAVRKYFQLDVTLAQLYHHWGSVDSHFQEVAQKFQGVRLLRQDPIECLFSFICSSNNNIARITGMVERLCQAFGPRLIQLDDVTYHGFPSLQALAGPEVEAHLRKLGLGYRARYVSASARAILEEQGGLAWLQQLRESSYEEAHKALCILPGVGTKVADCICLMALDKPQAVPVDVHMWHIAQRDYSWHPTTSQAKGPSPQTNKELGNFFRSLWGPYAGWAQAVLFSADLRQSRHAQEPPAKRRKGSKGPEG
Sequence of UniProt P50534 (whole entry, unmodified, looked up): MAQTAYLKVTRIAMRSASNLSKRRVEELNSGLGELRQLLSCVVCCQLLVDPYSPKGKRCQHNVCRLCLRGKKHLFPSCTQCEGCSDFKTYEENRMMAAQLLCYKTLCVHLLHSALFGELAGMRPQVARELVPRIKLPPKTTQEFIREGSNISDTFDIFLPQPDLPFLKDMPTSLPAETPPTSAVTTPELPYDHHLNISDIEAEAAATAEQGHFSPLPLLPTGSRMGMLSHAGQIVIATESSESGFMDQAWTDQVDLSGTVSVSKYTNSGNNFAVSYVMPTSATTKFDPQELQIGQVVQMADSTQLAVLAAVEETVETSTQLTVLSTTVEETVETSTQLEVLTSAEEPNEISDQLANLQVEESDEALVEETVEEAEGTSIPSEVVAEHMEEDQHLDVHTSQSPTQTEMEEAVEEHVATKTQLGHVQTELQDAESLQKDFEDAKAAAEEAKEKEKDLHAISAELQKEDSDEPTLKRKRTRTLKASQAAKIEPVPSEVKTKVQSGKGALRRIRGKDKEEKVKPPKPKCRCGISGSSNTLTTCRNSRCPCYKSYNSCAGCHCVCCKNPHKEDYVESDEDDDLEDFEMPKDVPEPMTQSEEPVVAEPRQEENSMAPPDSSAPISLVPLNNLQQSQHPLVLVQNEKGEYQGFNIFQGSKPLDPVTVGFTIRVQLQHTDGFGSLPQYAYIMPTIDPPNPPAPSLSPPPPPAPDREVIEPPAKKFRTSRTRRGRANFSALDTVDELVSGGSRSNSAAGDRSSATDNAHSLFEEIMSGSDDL
Sequence of UniProt Q8L7G0 (whole entry, looked up): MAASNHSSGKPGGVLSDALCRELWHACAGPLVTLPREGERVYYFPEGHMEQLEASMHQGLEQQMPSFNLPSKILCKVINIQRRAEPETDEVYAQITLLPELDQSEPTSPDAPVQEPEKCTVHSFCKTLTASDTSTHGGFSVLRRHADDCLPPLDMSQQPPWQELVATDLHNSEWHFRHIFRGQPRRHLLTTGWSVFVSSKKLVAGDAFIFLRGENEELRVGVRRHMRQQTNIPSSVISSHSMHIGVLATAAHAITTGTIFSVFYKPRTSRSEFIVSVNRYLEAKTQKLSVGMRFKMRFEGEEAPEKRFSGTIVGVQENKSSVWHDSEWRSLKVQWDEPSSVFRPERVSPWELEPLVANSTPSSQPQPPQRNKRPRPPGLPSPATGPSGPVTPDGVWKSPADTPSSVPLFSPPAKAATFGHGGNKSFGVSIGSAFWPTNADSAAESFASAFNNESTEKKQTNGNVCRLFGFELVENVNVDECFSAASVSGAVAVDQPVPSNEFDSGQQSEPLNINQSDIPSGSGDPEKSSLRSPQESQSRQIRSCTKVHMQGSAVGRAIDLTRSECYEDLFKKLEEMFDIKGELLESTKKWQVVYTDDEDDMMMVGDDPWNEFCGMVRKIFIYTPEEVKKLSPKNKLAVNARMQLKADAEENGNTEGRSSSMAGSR
Sequence of UniProt Q8K3Y3 (whole entry, looked up): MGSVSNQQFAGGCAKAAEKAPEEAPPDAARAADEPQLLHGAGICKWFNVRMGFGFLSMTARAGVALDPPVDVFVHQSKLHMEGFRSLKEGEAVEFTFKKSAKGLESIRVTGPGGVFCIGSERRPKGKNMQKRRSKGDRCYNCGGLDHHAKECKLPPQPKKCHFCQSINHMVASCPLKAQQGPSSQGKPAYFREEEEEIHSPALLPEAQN
Sequence of UniProt Q60900 (whole entry, looked up): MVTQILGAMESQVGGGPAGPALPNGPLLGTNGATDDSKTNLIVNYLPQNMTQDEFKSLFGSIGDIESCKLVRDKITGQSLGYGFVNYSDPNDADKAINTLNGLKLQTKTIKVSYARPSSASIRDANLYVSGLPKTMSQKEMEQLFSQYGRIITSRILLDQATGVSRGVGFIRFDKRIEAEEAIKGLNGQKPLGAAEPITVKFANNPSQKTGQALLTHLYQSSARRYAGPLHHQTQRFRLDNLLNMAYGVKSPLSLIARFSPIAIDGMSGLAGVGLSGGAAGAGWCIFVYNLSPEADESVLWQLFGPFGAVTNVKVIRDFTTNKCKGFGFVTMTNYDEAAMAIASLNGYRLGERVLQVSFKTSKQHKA

Substance | target or system | assay | system | conditions | scale | quantity | value
GCAGCUUCUUUACAGUGUUGCCUUGUGGCAUGGAGUUCAAGCAGCAUUGUACAGGGCUAUCA (structured RNA) | RBFOX1 109-208 (Homo sapiens, UniProt Q9NWB1) | SHAPE footprinting | folded RNA | – | – | binding | binds
P1 L5A C6S | PFN2 | ELISA | – | 1.6 µM, read off a plot | higher = more binding | signal | 0.049 OD
TTATTCAGCCATCAAAAGATGACCAATAAT (dsDNA) | WRKY6 full length assumed | EMSA | double-stranded DNA, one strand shown | – | – | binding | no binding
GCAGAUUCACAAUCUAUGAUACCACCCGGUACAGGAGAUAUCUGCA (structured RNA) | Lin28a 119-180 (Mus musculus, UniProt Q8K3Y3) | EMSA | folded RNA | – | – | binding | no binding
CAAACAAAACCGUGUAAAAACAAA (ssRNA; single strand, 2'-OMe G12, G14, A23) | rnr 82-725 (Mycoplasmoides genitalium, UniProt P47350) | fluorescence polarization | RNA | added: Mg2+ | – | binding | binds
CAGCAGCAGCAGCAGCAGCAGCAGCAGCAG (dsDNA; blunt 30 bp, 8-oxoG G15) | OGG1 (Homo sapiens, UniProt O15527) | NaBH4 trapping, SDS-PAGE | double-stranded DNA, one strand shown | – | – | binding | binds
TTATTCAGCCATCAAAAGTTGACCGATAAT (dsDNA) | WRKY6 full length assumed | EMSA | double-stranded DNA, one strand shown | – | – | binding | binds
GGCGGCGGTCTCATCATCGAAACGGGGCGATGCGCTCATTTTCTTAAACA (dsDNA) | clp full length assumed | competition | double-stranded DNA, one strand shown | – | – | binding | binds
GCUGGUUUCAUAUGGUGGUUUAGAUUUAAAUAGUGAUUGUCUAGCACCAUUUGAAAUCAGUGUU (structured RNA) | DICER1 (Homo sapiens, UniProt Q9UPY3) | EMSA | folded RNA | 30 nM | – | binding | binds
AGGCGAGUAGGGUAUGCUG (ssRNA) | TARDBP 1-414 (Homo sapiens, UniProt Q13148) | UV cross-linking | RNA, S100 | – | – | binding | no binding
TTATTCAGCCATCAAAAGTAGACCAATAAT (dsDNA) | WRKY6 full length assumed | EMSA | double-stranded DNA, one strand shown | – | – | binding | no binding
GGGAGACCUAGCCUCAUAUAAUCGUUGUCCAGAAUGGGAUGGAUUCGUAGCAUAAGUUUUCCAAACAUUAUUUUGUUGUCGAAAAUUGUACAUAAGCCAAUUAAGCCGCUA (ssRNA) | pum | EMSA | RNA | – | – | binding | binds
TTATTCAGCCATCAAAAGCTGACCAATAAT (dsDNA) | WRKY6 full length assumed | EMSA | double-stranded DNA, one strand shown | – | – | binding | no binding
CAGGAUUUAAAAUUUAAUUAUAUCAGUAAAGAGAUUAAUUUUAAC (ssRNA) | ELAVL1 full length assumed | EMSA | RNA | – | – | binding | no binding
TTATTCAGCCATCAAAGGTTGACCAGTAAT (dsDNA) | WRKY6 full length assumed | EMSA | double-stranded DNA, one strand shown | – | – | binding | binds
CTCTCGCCTTCC (dsDNA; 12-mer duplex) | OGG1 1-345 (Homo sapiens, UniProt O15527) | stopped-flow fluorescence | double-stranded DNA, one strand shown | – | – | binding | binds

Substance | target or system | assay | system | conditions | scale | quantity | value
CUGUAUCUAUCUGUUUAUCUAUACCUAUCUAUGUAUCUAUCUAUUGAAGUGUGAAAUU (ssRNA) | ELAVL1 1-326 (Homo sapiens, UniProt Q15717) | EMSA | RNA | not purified | – | binding | no binding
TTATTCAGCCATCAAAAGTTGACAAATAAT (dsDNA) | WRKY6 full length assumed | EMSA | double-stranded DNA, one strand shown | – | – | binding | no binding
GATATTCCAAAGAATGCGTTGCGTCGCATTGCAATCGGGCCTGCGCCTTT (dsDNA) | clp full length assumed | EMSA | double-stranded DNA, one strand shown | – | – | binding | no binding
CTTCCTCCAGATGAGCTCATGGGTTTCTCCACCAAGGAAGTTTTCCGCTGGTTG (dsDNA) | T1, NFATC1 408-716 | EMSA | double-stranded DNA, one strand shown | – | – | binding | binds
CGAATATGAGCGAGATGGATG (dsDNA) | msl-2 520-570 C560G (Drosophila melanogaster, UniProt P50534) | NMR NOESY | double-stranded DNA, one strand shown | – | – | binding | binds
GGTGAGTAAAGTCACGTGGTTATACAACAA (dsDNA) | Basic helix-loop-helix transcription factor 1-394 (Salvia miltiorrhiza, UniProt A0A0H3Y8V8) | EMSA | double-stranded DNA, one strand shown | – | – | binding | binds
TGCTGATTGGCCATGTGCGCTCACCCGAGGGGCGGGG (dsDNA) | T2, SREBF1 residues 1-403 (Rattus norvegicus) | EMSA | double-stranded DNA, one strand shown | – | – | binding | binds
TTATTCAGCCATCAAAAGTTGACCTATAAT (dsDNA) | WRKY6 full length assumed | EMSA | double-stranded DNA, one strand shown | – | – | binding | binds
TTTACTTGTTAGAAAAGAGCTTTCCAAGGGATATTTCA (dsDNA) | nin 560-878 (Lotus japonicus, UniProt Q9S7B1) | EMSA | double-stranded DNA, one strand shown | – | – | binding | no binding
UCGAUGUUUUGGGUAUUGAAUGUGGUAAGUGGAGGAAAUG (ssRNA) | ELAVL1 full length assumed | EMSA | RNA | – | – | binding | no binding
AGTCTTTTTGGTCTCTGGTCGGTCGACAATCCGTGTG (dsDNA; 5-C6-amino-dT labels) | ARF1 1-355 (Arabidopsis thaliana, UniProt Q8L7G0) | smFRET kinetics | double-stranded DNA, one strand shown | – | – | binding | binds
GGGAGACCUAGCCUCAUAUAAUCGUUGUCCAGAAUGGGAUGGAUUCGUAGCAUAAGUUUUCCAAACAUUAUUUUGUUGUCGAAAAUGGGACGGAAGCCAAUUAAGCCGCUA (ssRNA) | pum | EMSA | RNA | – | – | binding | no binding
ATGAGCGAGATG (dsDNA) | msl-2 520-570 R543A/C560G (Drosophila melanogaster, UniProt P50534) | NMR titration | double-stranded DNA, one strand shown | – | – | binding | no binding
GAAUUUUUUUUUUUUAAUUCACUAACUUUACUUUAAAAGA (ssRNA) | Elavl3 full length assumed (Mus musculus, UniProt Q60900) | EMSA | RNA | – | – | binding | binds
TGATTTCTTACCTTTTGGAGCCGCATGATGTCGCTGTCTACCATGA (dsDNA) | CTCF 266-577 (Homo sapiens, UniProt P49711) | EMSA | double-stranded DNA, one strand shown | not purified | – | binding | binds
